Experimental data gathered from unrelated publications.
A part holds a random share of what one study measured. “And” joins repeats or separate records; there may be more than shown.
UniProt Q99640, sequence (whole entry, looked up): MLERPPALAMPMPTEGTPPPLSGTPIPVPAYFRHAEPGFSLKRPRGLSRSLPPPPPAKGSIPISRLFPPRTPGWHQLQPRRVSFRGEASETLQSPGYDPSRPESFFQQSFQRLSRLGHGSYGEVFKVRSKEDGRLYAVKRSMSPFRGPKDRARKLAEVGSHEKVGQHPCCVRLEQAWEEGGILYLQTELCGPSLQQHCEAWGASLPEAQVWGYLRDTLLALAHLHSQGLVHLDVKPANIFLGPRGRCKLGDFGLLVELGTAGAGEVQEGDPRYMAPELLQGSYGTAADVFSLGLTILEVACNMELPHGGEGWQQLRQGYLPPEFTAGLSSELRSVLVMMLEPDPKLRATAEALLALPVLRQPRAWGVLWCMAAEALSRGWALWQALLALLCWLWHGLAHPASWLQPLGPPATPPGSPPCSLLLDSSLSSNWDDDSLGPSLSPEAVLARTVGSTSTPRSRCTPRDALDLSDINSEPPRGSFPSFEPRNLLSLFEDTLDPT

Block 1
SMILES: CC(C)(C(=O)O)[C@H](NC(=O)Cc1cccc(I)c1)c1ccc2oc(=O)[nH]c2c1
Method: Incucyte 3D growth
Concentration: 30 µM
Direction: higher = more growth
Measurement: spheroid area
MEL-JUSO; 348.52 h: 3.77e+07 a.u. and 3.01e+07 a.u. and 5.6e+07 a.u. and 3.93e+07 a.u. and 3.81e+07 a.u. and 4.91e+07 a.u.
KP-4; 6 h: 2.14e+07 a.u. and 1.48e+07 a.u. and 1.55e+07 a.u. and 1.73e+07 a.u. and 1.81e+07 a.u. and 2.19e+07 a.u.
KP-4; 204 h: 3.63e+07 a.u. and 5.08e+07 a.u. and 3.36e+07 a.u. and 1.76e+07 a.u. and 3.25e+07 a.u. and 3.5e+07 a.u.
A375; 162.52 h: 1.13e+08 a.u. and 1.18e+08 a.u. and 1.17e+08 a.u. and 9.73e+07 a.u.
A375; 132 h: 8.13e+07 a.u. and 7.78e+07 a.u. and 8.57e+07 a.u. and 6.73e+07 a.u. and 9.4e+07 a.u. and 7.54e+07 a.u.
A375; 60 h: 3.74e+07 a.u. and 3.52e+07 a.u. and 3.95e+07 a.u. and 1.36e+07 a.u. and 1.39e+07 a.u. and 1.69e+07 a.u.

Block 2
Cell line: HaCaT
Concentration: 100 µM
Time: 60 h
Measurement: viability
CC(C)(Oc1ccc(CCNC(=O)c2ccc(Cl)cc2)cc1)C(=O)O: 124%
[H]/N=C(/N)N/C(=N/[H])NCCc1ccccc1: 108%
O=C(c1ccc(F)cc1)C1CCN(CCn2c(=O)[nH]c3ccccc3c2=O)CC1: 90.9%
C=C1[C@H](CO)[C@@H](O)C[C@@H]1n1cnc2c(=O)[nH]c(N)nc21: 86%
COc1cccc2c1C(=O)c1c(O)c3c(c(O)c1C2=O)C[C@@](O)(C(C)=O)C[C@@H]3O[C@H]1C[C@H](N)[C@H](O)[C@H](C)O1: 45.9%
CN(N=O)C(=O)N[C@@H](C=O)[C@@H](O)[C@H](O)[C@H](O)CO: 144%
OC(CCCN1CCCCC1)(c1ccccc1)c1ccccc1: 125%

Other studies, line by line
Cn1cncc1[C@](O)(COc1ccc(C#N)cc1-c1ccc(OC(F)(F)F)cc1)c1ccc(C#N)cc1 — remaining binding (PKMYT1 (Homo sapiens, UniProt Q99640); cell-free assay, competition with immobilised ligand; 1 µM): 100%
STEFIPNLF — binding (HLA class I histocompatibility antigen, C alpha chain, allele C*04:01 (Homo sapiens, UniProt P10321); peptide-MHC binding; peptide; concentration not given): inactive

For quick reference, copied from above (block 1):
A375; 162.52 h: 1.13e+08 a.u. and 1.18e+08 a.u. and 1.17e+08 a.u. and 9.73e+07 a.u.
A375; 132 h: 8.13e+07 a.u. and 7.78e+07 a.u. and 8.57e+07 a.u. and 6.73e+07 a.u. and 9.4e+07 a.u. and 7.54e+07 a.u.
